# Results from different studies.
# A part holds a random share of what one study measured. Numbers after ± are the reported error.
# UniProt Q81Y92, sequence (whole entry, looked up): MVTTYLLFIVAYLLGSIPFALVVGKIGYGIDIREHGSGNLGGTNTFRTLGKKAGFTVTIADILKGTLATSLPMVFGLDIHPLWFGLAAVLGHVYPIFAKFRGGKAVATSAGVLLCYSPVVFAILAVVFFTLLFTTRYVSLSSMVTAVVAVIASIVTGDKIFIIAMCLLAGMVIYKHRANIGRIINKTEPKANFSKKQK

# Block 1 — observed: enzyme activity; action: inhibitor; concentration: 20 µM
# Target: Replicase polyprotein 1ab, polymerase (rep, Severe acute respiratory syndrome coronavirus 2, UniProt P0DTD1)
Compound,inhibition [%]
C[N+](C)(C)NCCC(=O)[O-],4.13
Cc1c(F)cccc1NC(=O)Nc1ccc(Cl)c(S(=O)(=O)[C@H]2CCCNC2)c1O,-0.32
COc1cc(/C=C2\CCC/C(=C\c3ccc(O)c(OC)c3)C2=O)ccc1O,9.65
Nc1ncnc2n[nH]c(Nc3ccc(F)cc3)c12,-4.27
C[C@@H](c1ncncc1F)[C@](O)(Cn1cncn1)c1ccc(F)cc1F,-4.97
N=C(N)NCCCC[C@@H]1NC(=O)CCSSC[C@@H](C(N)=O)NC(=O)[C@@H]2CCCN2C(=O)[C@H](Cc2c[nH]c3ccccc23)NC(=O)[C@H](CC(=O)O)NC(=O)CNC1=O,-6.61
OCCOc1ccc(/C(=C(/CCCl)c2ccccc2)c2ccccc2)cc1,1.73
Cn1c(=O)[nH]c2ncn(C)c2c1=O,0.02
CC(C)(C)OC(=O)N[C@H]1CCCCC/C=C\[C@@H]2C[C@@]2(C(=O)NS(=O)(=O)C2CC2)NC(=O)[C@@H]2C[C@@H](OC(=O)N3Cc4cccc(F)c4C3)CN2C1=O,-4.41
O=C(OC(C(F)(F)F)C(F)(F)F)N1CCC(C(O)(c2ccc3c(c2)OCO3)c2ccc3c(c2)OCO3)CC1,-0.69
CCc1oc2ccccc2c1C(=O)c1cc(Br)c(O)c(Br)c1,17.5
CC(=O)N(O)C/C=C/c1cccc(Oc2ccccc2)c1,-2.52
CCC(=O)NS(=O)(=O)c1ccc(-c2c(-c3ccccc3)noc2C)cc1,3.7
CCCCCCCC/C=C\CCCCCCCC(=O)NCc1ccc(O)c(OC)c1,2.2
C[C@H](CSC(=O)c1ccccc1)C(=O)N1C[C@@H](Sc2ccccc2)C[C@H]1C(=O)O,5.87
O=C1C(CC[S+]([O-])c2ccccc2)C(=O)N(c2ccccc2)N1c1ccccc1 (centres unmarked),23
Oc1cc2c(cc1O)[C@H]1c3ccccc3CN[C@@H]1CC2 (racemic),-14.9
Nc1ccc(S(=O)(=O)NC(=O)c2ccccc2)cc1,24.4
CCN(CC)CCOC(=O)C(c1ccccc1)C1CCCCC1 (centres unmarked),-0.05
CS(=O)(=O)c1cccc(CNc2nc(Nc3ccc4c(c3)CCC(=O)N4)ncc2C(F)(F)F)c1,-2.69
S=C(NC1CCCCC1)N1CCC(c2cnc[nH]2)CC1,-2.84
CC(C)(Oc1ccc(CCNC(=O)c2ccc(Cl)cc2)cc1)C(=O)O,-6.03
CC1=C(CC(=O)O)c2cc(F)ccc2/C1=C\c1ccc(S(C)(=O)=O)cc1,-1.73
CCC1=C[C@@H]2CN3CCc4c([nH]c5ccccc45)[C@@](C(=O)OC)(C2)[C@@H]13,-2.17
N[C@@H](CCNCc1ccc(Cl)cc1)C(=O)N1CCCCC1,-11.7

# Block 2 — cell line: HEK-293T; organism: VSV pseudotyped with SARS-CoV-2 spike; concentration: 10 µM; time: 16 h
Structure (SMILES),pseudovirus infection [%]
CC(C)c1c(C(=O)Nc2ccccc2)c(-c2ccccc2)c(-c2ccc(F)cc2)n1CC[C@@H](O)C[C@@H](O)CC(=O)O,112
CN(C)CCC=C1c2ccccc2C=Cc2ccccc21,28.2
CN1CCCCC1CCN1c2ccccc2Sc2ccc([S+](C)[O-])cc21 (centres unmarked),57.4

# Block 3 — observed: enzyme activity; action: inhibitor; concentration: 20 µM; setting: hit confirmation, with DTT
# Target: Replicase polyprotein 1ab, main protease (rep, Severe acute respiratory syndrome coronavirus 2, UniProt P0DTD1)
SMILES,inhibition
Cc1ccc(S(=O)(=O)c2ccc([N+](=O)[O-])o2)cc1,5.8%
CCN(CC)C(=S)[S-].O.O.O.[Na+],-13.9%
S=C=NCc1ccccc1,77.7%

# Other studies, line by line
# Spike glycoprotein: Spike glycoprotein (Severe acute respiratory syndrome coronavirus 2, UniProt P0DTC2)
SMILES,target or system,test,system,setting,how to read,endpoint,result
CN1CCN(C2Cc3ccccc3Sc3ccc(Cl)cc32)CC1 (centres unmarked),HeLa,Ebola VLP entry,,,,IC50,7.69 µM
Nc1ncnc2c([C@@H]3N[C@H](CO)[C@@H](O)[C@H]3O)c[nH]c12,Zaire ebolavirus,antibody staining,human macrophages,100 µM,,antigen-positive cells,2.31%
CC(C)(C)[C@H](NC(=O)C(F)(F)F)C(=O)N1C[C@H]2[C@@H]([C@H]1C(=O)N[C@H](C#N)C[C@@H]1CCNC1=O)C2(C)C,,,"human, fasted",150 mg single dose,,"Vz/F, geometric mean",191 L
C=C(C)[C@@H]1[C@H]2OC(=O)[C@@H]1[C@]1(O)C[C@H]3O[C@]34C(=O)O[C@H]2[C@]14C,mouse MPNST tumor cells,"high-content immunofluorescence imaging, measured: nuclear SOX9",,"10 µM, 12 h, mean of 2 replicates","relative to: DMSO control, higher = more nuclear SOX9",nuclear SOX9 intensity,98.8 % of DMSO
CCC(CC)COC(=O)[C@H](C)N[P@](=O)(OC[C@H]1O[C@@](C#N)(c2ccc3c(N)ncnn23)[C@H](O)[C@@H]1O)Oc1ccccc1,SARS-CoV-2,"viral replication, plaque assay and RT-qPCR",Vero E6,,,effective concentration,≥ 3 µM
O=C(O[C@@H]1Cc2c(O)cc(O)cc2O[C@@H]1c1cc(O)c(O)c(O)c1)c1cc(O)c(O)c(O)c1,Spike glycoprotein,"binding, BLI",,,,koff,0.00266 s⁻¹
O=C(CCCCCCCCCCOc1ccccc1)CP(=O)(O)O,"Glycerol-3-phosphate acyltransferase 3 (plsY3, Bacillus anthracis, UniProt Q81Y92)",inhibitor,,200 µM,,inhibition,55%
C=CCN1CC[C@@]2(C)c3cc(O)ccc3C[C@@H]1[C@@H]2C,SARS-CoV-2,"viral replication, RT-qPCR",A549 expressing ACE2,,,IC50,> 10 µM
CC1(C)CC2(C)OC(=O)NC2(C)c2ccccc21 (centres unmarked),"Replicase polyprotein 1ab, nsp13 helicase (rep, Severe acute respiratory syndrome coronavirus 2, UniProt P0DTD1)","binding, affinity selection mass spectrometry",,,relative to: other proteins in batch,log fold enrichment,0.176
CCOC(=O)Nc1ccc(NCc2ccc(F)cc2)cc1N,"Kcnq5 (Rattus norvegicus, UniProt F1LY25)",whole-cell patch clamp,rat calyx of Held neurons,5 to 10 µM,,outward K+ current increase,41 ± 4%
O=C(O)c1ccc(-c2cccc(/C=N/NC(=O)c3ccc(O)c(O)c3)c2)cc1,"Gag-Pol polyprotein, reverse transcriptase A502G/D256G (gag-pol, Human immunodeficiency virus type 1 group M subtype B, UniProt P04585, A1089G/D843G)","RNase H activity, inhibitor",HIV-1,,,IC50,6.5 ± 2.1 µM
CN(O)C(=O)COC(c1ccc(F)cc1F)P(=O)(O)O (centres unmarked),Yersinia pestis,,A1122,24 h,,MIC,> 512 µg/mL
Cc1cn([C@H]2C[C@H](N=[N+]=[N-])[C@@H](CO)O2)c(=O)[nH]c1=O,HIV-1,viral replication,"human PBMC, subtype F 93BR019, CXCR4-tropic clinical isolate",,,EC50,0.0058 ± 0.00395 µM
N#C[C@@]1(c2ccc3c(N)ncnn23)O[C@H](CO)[C@@H](O)[C@H]1O,SARS-CoV-2,viral replication,Vero E6,96 h,,EC50,< 0.8 µM
CCN(CC)CCOC(=O)C(O)(c1ccccc1)c1ccccc1,SARS-CoV-2,viral replication,A549 expressing ACE2,inactive set pIC50 4,,IC50,> 10 µM
OC1CCCCC1N1CCC(c2ccccc2)CC1 (centres unmarked),mouse MPNST tumor cells,"high-content immunofluorescence imaging, measured: nuclear SOX9",,"10 µM, 12 h, mean of 2 replicates","relative to: DMSO control, higher = more nuclear SOX9",nuclear SOX9 intensity,104 % of DMSO
CC(C)(C)[C@H](NC(=O)C(F)(F)F)C(=O)N1C[C@@H]2CCC[C@@H]2[C@H]1C(=O)N[C@H](C#N)C[C@@H]1CCNC1=O,SARS-CoV-2,"viral replication, qRT-PCR viral RNA",Vero E6,10 µM,,inhibition,90%
CO[C@H]1C[C@@H]2CC[C@@H](C)[C@@](O)(O2)C(=O)C(=O)N2CCCC[C@H]2C(=O)O[C@H]([C@H](C)C[C@@H]2CC[C@@H](O)[C@H](OC)C2)CC(=O)[C@H](C)/C=C(\C)[C@@H](O)[C@@H](OC)C(=O)[C@H](C)C[C@H](C)/C=C/C=C/C=C/1C,Spike glycoprotein,"binding, BLI",,,,koff,0.194 s⁻¹
Cn1cnc(Cn2c(=O)[nH]/c(=N\c3cc4cn(C)nc4cc3Cl)n(Cc3cc(F)c(F)cc3F)c2=O)n1,,,"human, moderate renal impairment","oral, 375 mg, decreased GFR TEAE, moderate severity",,patients with adverse event,12.5%
